Assay results of several laboratories.
Compare with care: the assays were run in different laboratories. Several values in a cell are separate wells, animals, samples, runs or records. Numbers after ± are the reported error.
BCHE: Cholinesterase (BCHE, Equus caballus, UniProt P81908)
Chain of UniProt P81908 (whole entry, looked up): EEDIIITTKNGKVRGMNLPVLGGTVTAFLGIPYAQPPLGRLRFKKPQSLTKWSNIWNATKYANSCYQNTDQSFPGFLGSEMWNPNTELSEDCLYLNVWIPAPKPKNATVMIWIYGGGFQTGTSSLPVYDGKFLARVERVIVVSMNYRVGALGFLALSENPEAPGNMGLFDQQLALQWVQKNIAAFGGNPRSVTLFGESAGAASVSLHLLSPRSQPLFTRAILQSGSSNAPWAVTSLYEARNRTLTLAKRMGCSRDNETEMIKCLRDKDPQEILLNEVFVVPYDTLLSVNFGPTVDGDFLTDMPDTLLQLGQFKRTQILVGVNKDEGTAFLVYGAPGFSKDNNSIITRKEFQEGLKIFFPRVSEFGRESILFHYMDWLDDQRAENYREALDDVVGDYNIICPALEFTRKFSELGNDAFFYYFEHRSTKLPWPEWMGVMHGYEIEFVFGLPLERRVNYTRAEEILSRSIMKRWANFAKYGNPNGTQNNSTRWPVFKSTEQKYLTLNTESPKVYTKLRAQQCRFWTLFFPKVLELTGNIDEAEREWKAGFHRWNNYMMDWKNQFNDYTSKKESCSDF
IGF1R: Insulin-like growth factor 1 receptor (IGF1R, Homo sapiens, UniProt P08069)
Chain of UniProt Q9Y2J8 (whole entry, looked up): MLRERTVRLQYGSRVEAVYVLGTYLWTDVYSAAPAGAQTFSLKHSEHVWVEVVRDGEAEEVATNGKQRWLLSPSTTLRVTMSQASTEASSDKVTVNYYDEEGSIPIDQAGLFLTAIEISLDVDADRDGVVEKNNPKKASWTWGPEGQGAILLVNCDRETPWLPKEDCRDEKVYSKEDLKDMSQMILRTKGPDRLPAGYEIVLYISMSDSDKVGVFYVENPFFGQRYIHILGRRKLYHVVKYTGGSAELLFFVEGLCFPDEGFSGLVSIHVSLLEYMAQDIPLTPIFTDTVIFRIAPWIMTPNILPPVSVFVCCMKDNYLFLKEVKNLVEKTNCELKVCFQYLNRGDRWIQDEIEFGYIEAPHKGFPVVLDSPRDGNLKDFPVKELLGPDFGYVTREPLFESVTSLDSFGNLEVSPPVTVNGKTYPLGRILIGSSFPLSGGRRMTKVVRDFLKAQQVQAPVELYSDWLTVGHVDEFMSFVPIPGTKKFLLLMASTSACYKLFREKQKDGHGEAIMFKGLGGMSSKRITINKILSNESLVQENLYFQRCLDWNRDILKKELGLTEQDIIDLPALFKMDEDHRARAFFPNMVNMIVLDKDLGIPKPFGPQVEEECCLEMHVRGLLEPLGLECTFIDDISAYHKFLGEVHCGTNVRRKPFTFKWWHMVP
Chain of UniProt P08069 (whole entry, looked up): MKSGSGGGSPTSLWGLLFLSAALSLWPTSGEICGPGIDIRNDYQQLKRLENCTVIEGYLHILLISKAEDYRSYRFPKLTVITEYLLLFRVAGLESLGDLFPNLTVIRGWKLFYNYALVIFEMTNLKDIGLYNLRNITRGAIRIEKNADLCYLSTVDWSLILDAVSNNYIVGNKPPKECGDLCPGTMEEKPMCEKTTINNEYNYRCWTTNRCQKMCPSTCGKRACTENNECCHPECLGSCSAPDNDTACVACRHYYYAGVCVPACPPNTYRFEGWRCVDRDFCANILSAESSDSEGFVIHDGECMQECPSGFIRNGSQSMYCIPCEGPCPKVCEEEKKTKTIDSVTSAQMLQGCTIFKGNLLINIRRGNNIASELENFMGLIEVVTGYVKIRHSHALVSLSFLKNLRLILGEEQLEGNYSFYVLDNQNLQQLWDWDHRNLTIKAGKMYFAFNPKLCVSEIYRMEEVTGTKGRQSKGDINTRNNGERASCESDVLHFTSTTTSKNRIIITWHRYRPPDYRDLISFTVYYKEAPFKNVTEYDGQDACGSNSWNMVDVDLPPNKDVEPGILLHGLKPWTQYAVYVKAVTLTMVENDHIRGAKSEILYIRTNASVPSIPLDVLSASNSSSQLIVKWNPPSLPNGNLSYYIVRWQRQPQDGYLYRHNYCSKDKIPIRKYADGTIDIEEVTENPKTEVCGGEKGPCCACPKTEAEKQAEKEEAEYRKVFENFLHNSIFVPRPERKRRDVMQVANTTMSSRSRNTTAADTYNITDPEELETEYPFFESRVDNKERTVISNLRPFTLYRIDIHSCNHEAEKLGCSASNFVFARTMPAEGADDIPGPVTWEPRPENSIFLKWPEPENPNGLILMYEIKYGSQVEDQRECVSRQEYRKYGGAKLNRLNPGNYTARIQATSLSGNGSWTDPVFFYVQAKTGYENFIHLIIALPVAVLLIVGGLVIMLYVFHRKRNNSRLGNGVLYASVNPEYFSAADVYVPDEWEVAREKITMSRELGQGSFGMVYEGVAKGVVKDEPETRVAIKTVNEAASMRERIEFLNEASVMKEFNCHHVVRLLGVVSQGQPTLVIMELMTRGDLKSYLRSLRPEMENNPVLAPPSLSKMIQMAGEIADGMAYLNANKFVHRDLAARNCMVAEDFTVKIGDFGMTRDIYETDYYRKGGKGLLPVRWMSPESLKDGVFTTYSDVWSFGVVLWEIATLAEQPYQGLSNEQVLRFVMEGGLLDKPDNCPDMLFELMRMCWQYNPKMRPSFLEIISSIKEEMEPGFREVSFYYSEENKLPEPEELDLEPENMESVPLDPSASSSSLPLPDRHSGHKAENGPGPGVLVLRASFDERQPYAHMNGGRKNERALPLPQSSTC
Chain of UniProt P97823 (whole entry, looked up): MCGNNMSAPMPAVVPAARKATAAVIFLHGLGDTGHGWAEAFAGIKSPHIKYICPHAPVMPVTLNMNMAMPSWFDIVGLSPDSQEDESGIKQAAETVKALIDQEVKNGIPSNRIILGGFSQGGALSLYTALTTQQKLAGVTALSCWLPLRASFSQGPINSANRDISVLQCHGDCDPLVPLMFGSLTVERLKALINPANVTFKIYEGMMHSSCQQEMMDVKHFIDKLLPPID
Chain of UniProt P25101 (whole entry, looked up): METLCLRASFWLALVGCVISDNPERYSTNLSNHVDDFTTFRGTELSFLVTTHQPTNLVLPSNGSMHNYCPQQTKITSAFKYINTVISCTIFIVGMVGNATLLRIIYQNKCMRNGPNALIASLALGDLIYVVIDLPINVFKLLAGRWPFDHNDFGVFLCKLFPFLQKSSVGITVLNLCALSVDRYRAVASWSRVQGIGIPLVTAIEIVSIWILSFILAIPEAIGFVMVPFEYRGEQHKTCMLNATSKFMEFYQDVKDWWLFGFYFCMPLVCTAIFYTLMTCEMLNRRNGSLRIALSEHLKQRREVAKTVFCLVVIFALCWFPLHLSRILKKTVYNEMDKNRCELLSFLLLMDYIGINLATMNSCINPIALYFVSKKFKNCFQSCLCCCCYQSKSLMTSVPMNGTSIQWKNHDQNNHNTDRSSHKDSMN
Chain of UniProt Q9UIK4 (whole entry, looked up): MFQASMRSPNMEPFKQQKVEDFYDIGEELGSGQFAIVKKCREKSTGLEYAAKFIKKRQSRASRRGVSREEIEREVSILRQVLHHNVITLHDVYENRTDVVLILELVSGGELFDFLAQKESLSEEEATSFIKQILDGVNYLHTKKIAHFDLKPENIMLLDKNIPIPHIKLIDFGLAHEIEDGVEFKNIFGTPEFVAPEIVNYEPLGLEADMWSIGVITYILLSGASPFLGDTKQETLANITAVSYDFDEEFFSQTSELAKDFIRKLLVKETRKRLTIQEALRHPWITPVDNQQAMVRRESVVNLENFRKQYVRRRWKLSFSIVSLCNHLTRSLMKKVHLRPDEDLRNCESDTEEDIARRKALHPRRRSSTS
Chain of UniProt Q8TD19 (whole entry, looked up): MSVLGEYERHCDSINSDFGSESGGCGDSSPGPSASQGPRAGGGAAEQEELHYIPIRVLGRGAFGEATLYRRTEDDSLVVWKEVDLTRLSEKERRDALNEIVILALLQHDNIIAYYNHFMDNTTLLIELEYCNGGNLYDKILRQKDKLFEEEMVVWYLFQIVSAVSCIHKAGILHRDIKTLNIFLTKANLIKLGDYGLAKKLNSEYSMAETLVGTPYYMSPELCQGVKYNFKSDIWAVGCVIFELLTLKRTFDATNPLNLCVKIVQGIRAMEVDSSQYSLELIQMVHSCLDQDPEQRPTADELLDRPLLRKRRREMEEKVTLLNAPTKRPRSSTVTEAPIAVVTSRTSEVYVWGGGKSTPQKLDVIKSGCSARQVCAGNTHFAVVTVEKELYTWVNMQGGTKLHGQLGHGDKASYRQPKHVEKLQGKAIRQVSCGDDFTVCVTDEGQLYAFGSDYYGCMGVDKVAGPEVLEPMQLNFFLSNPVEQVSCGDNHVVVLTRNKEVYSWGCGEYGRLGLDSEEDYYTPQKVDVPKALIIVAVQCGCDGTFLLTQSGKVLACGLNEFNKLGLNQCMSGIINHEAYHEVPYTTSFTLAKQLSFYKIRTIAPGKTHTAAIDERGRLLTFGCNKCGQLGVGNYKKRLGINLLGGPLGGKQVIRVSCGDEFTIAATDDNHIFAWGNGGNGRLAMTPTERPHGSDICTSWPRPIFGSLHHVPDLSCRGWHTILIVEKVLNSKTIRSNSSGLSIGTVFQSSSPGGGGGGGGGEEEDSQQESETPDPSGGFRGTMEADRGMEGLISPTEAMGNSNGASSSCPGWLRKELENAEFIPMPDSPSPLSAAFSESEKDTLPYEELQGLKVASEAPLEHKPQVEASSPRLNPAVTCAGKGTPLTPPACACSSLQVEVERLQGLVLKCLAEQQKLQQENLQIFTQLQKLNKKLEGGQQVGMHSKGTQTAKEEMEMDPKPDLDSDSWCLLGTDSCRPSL
Chain of UniProt P25103 (whole entry, looked up): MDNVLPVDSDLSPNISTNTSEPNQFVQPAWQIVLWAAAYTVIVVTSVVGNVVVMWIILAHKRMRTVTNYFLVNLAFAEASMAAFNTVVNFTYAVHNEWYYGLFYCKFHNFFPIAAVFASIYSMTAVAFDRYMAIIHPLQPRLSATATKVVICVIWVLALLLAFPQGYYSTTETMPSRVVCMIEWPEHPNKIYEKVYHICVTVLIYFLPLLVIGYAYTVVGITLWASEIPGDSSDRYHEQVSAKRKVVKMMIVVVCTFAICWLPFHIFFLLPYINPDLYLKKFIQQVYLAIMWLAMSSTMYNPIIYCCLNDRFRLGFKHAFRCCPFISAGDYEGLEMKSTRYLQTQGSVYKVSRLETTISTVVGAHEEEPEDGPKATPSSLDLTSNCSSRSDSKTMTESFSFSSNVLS

SMILES | tested on | test | system | conditions | scale | endpoint | value
COc1ccccc1-c1n[nH]c2nc(N[C@H]3CC[C@H](NS(=O)(=O)CC(C)C)CC3)ncc12 |  | bead binding, competition bead pull-down, refers to: LINJ.21.0300 | Leishmania donovani extract | 10 µM | relative to: vehicle | relative abundance | 0.66
NCC1CCN(Cc2cccc(F)c2)CC1 | BCHE | enzyme activity, inhibitor, Ellman |  | 20 µM |  | inhibition | 55.1%
COc1ccccc1-c1n[nH]c2nc(NC3CCN(C(=O)Cc4ccc(F)cc4F)CC3)ncc12 |  | bead binding, competition bead pull-down, refers to: LINJ.36.0190 | Leishmania donovani axenic amastigote extract | 10 µM | relative to: vehicle | relative abundance | 1.08
C[C@H](NCc1ccc(-c2ccc(C(F)(F)F)cc2)cc1)C(N)=O | IGF1R | cell-free assay, competition with immobilised ligand |  | 1 µM |  | inhibition | 0%
CN(/N=C/c1ccccc1C(=O)O)c1nc(-c2ccccc2Cl)cs1 | BDNF/NT-3 growth factors receptor (NTRK2, Homo sapiens, UniProt Q16620) | enzyme activity, inhibitor |  | 1 µM |  | inhibition | -16%
CN[C@@H]1[C@H](O)[C@H](NC)[C@H]2O[C@]3(O)[C@H](O[C@@H]2[C@H]1O)O[C@H](C)C[C@H]3NC(=O)Cc1ccc(Cl)cn1 | Substance-P receptor (TACR1, Homo sapiens, UniProt P25103) | ligand displacement, radioligand |  | 10 µM |  | inhibition | 3%
Nc1ccc(/C=C/C(=O)N2CCc3c(oc4c(-c5ccc(F)cc5)cc(-c5ccc(C(=O)N6CCC(F)(F)CC6)cn5)cc34)C2)cn1 | IGF1R | binding, competition with immobilised ligand |  | 1 µM |  | remaining binding | 100%
CC(C)[C@H]1NC(=O)C[C@H]2/C=C/CCSSC[C@@H](NC1=O)C(=O)N[C@H](Cc1cccc3ccccc13)C(=O)NCC(=O)O2 | Cytoplasmic tyrosine-protein kinase BMX (BMX, Homo sapiens, UniProt P51813) | enzyme activity, inhibitor |  | 10 µM |  | inhibition | 1%
O=C(O)c1ccccc1/C=N/Nc1nc(-c2ccccc2Cl)cs1 | Serine/threonine-protein kinase Nek9 (NEK9, Homo sapiens, UniProt Q8TD19) | enzyme activity, inhibitor |  | 1 µM |  | inhibition | -7.59%
Cc1ccc2c(n1)c(-c1cccc(S(C)(=O)=O)c1)c(C)n2C/C(F)=C/CN | Metabotropic glutamate receptor 5 (GRM5, Homo sapiens, UniProt P41594) | ligand displacement, radioligand |  | 10 µM |  | inhibition | 16%
COc1cc2c(cc1OC)CNCC2 | BCHE | enzyme activity, inhibitor, Ellman |  | 20 µM |  | inhibition | 39.6%
CCC1CC(c2ccc(C(=O)O)cc2C)=NN1c1ccc(C#N)c(Cl)c1 (stereo not shown) | DNA (cytosine-5)-methyltransferase 3A, with DNMT3L (DNMT3A, Homo sapiens, UniProt Q9Y6K1) | enzyme activity |  | 10 µM |  | inhibition | 3%
COc1ccc(F)cc1S(=O)(=O)Nc1cnc2c(c1)C(=O)NCCO2 | NMDA receptor Glycine site | radioligand binding |  | 10 µM |  | inhibition | -1%
CC(C)CC(C(=O)N1CC2(CC1C#N)C(=O)Nc1ccccc12)N(C)C(=O)c1cc2c(F)cc(F)c(F)c2[nH]1 (stereo not shown) | Angiotensin-converting enzyme (ACE, Homo sapiens, UniProt P12821) | enzyme activity, inhibitor |  |  |  | IC50 | > 100000 nM
CC(=O)NC[C@@H]1[C@@H](O)C[C@H]2[C@H](O)C[C@@H](CO)N12 | Spodoptera litura β-N-acetylglucosaminidase |  | crude enzyme | 0.428 µM, run 1, together with: p-nitrophenyl GlcNAc |  | inhibition | 47.6%
O=C1NC2(CC2)COc2ncc(F)cc2[C@H]2COCCN2c2ccn3ncc1c3n2 |  |  | Sprague-Dawley rat, male, plasma | oral, 2.5 mg/kg/day, end of treatment, 4-week repeated-dose toxicity |  | prothrombin time | 9 ± 0.4 s

SMILES | tested on | test | system | conditions | scale | endpoint | value
O=C(CN1CN(c2ccccc2)C2(CCN(C(=O)c3cnc4[nH]ncc4c3)CC2)C1=O)NCC(F)(F)F | Epidermal growth factor receptor (EGFR, Homo sapiens, UniProt P00533) | inhibitor |  | concentration not given |  | inhibition | < 50%
C=CC(=O)Nc1cc(-c2nn(C3CCC(N4CCN(C(C)=O)CC4)CC3)c3ncnc(N)c23)ccc1Oc1ccccc1 (stereo not shown) | Mitogen-activated protein kinase kinase kinase 7 (MAP3K7, Homo sapiens, UniProt O43318) | inhibitor, KiNativ profiling | biochemical | 2 µM |  | inhibition | -4.6%
C1CCNC1 | BCHE | enzyme activity, inhibitor, Ellman |  | 20 µM |  | inhibition | 45.9%
CN[C@@H]1[C@H](O)[C@H](NC)[C@H]2O[C@]3(O)[C@H](O[C@@H]2[C@H]1O)O[C@H](C)C[C@H]3NC(=O)Cc1cc(Cl)ccn1 | Glutamate receptor ionotropic, NMDA 1 (Grin1, Rattus norvegicus, UniProt P35439) |  |  | 10 µM |  | inhibition | 10%
O=C(N1CCCCC1)n1ccnn1 | Acyl-protein thioesterase 1 (Lypla1, Mus musculus, UniProt P97823) | serine hydrolase activity, inhibitor, competitive gel-based ABPP | mouse T-cell proteome | 1 µM, 30 min, 37 °C |  | inhibition | < 50%
c1ccc2[nH]ccc2c1 | BCHE | enzyme activity, inhibitor, Ellman |  | 20 µM |  | inhibition | 44.7%
Cc1sc2c(c1C)C(c1ccc(Cl)cc1)=NC(CC(=O)OC(C)(C)C)c1nnc(C)n1-2 (stereo not shown) | Endothelin-1 receptor (EDNRA, Homo sapiens, UniProt P25101) | ligand displacement, radioligand |  | 1 µM |  | remaining binding | 83.7%
CC[C@H](C)[C@@H]([C@@H](CC(=O)N1CCC[C@H]1[C@H](OC)[C@@H](C)C(=O)N[C@H](C)[C@@H](O)c1ccccc1)OC)N(C)C(=O)[C@@H](NC(=O)[C@H](C(C)C)N(C)C(=O)OCc1ccc(NC(=O)[C@H](CCCNC(N)=O)NC(=O)[C@@H](NC(=O)CCCCCN2C(=O)CC(SC[C@H](NC(=O)[C@H](CC(=O)O)NC(=O)[C@H](Cc3ccc(O)cc3)NC(=O)[C@H](Cc3c[nH]c4ccccc34)NC(=O)[C@@H](N)CCCNC(=N)N)C(=O)O)C2=O)C(C)C)cc1)C(C)C (stereo partly shown) |  |  | C57BL/6 mouse, healthy, kidney | intraperitoneal, 2.5 mg/kg, 1 h |  | concentration | not detected
CC[C@H](C)[C@H](NC(=O)[C@H](CO)NC(=O)[C@H](Cc1ccc(O)cc1)NC(=O)[C@H](Cc1ccc(O)cc1)NC(=O)[C@H](CC(N)=O)NC(=O)CNC(=O)[C@H](CO)NC(=O)[C@H](Cc1ccc(O)cc1)NC(=O)[C@H](CO)NC(=O)[C@H](CO)NC(=O)[C@H](CC(N)=O)NC(=O)COCCOCCNC(=O)CN1CCN(CC(=O)O)CCN(CC(=O)O)CCN(CC(=O)O)CC1)C(=O)N[C@@H](CC(C)C)C(N)=O [copper-64 labelled] |  | dynamic PET | tamoxifen-induced PDAC mouse model, pancreas | 0 min, CLDN4-expressing tumours |  | maximum pancreas uptake | 0 %IA/cc
CS(C)(=O)=Nc1ccc(-c2ccc(-c3nc4cc(O[C@@H]5CO[C@H]6[C@@H]5OC[C@H]6O)[nH]c4cc3F)cc2)cc1 | Death-associated protein kinase 2 (DAPK2, Homo sapiens, UniProt Q9UIK4) | enzyme activity, inhibitor |  | 10 µM |  | inhibition | 11%
N[C@H](C(=O)N1CCCC1)C1CCN(c2nccc3c(-c4ncc(Cl)cc4Cl)cccc23)CC1 | Protein-arginine deiminase type-2 (PADI2, Homo sapiens, UniProt Q9Y2J8) | enzyme activity, GDH-coupled |  | 0.2458 µM, together with: 1.5 mM Ca2+ (high) |  | inhibition | -0.0786% and 8.72%
CCOC(=O)[C@](CC)(CCCSCCOCCOCCNC(=O)c1ccc(-c2c3ccc(=N)c(S(=O)(=O)O)c-3oc3c(S(=O)(=O)O)c(N)ccc23)c(C(=O)O)c1)NC(=O)c1ccc(C2CC2)c(Cc2ccc(F)cc2)n1 | GABA-gated chloride channel | specific binding, antagonist radioligand binding |  | 10 µM |  | inhibition | 30%
CC(C)(C)C(=O)OCOP(=O)(OCOC(=O)C(C)(C)C)C1CCCN(O)C1=O (stereo not shown) | OVCAR-8 |  |  |  |  | GI50 | 305 nM
O=C1NC(=O)c2c1c1cc(F)c[n+]3c1c1c2c2cc(O)ccc2[n]1[Ru-4]312([N]=C=S)[S+]3CC[S+]1CC[S+]2CC3 (stereo not shown) | Insulin receptor (INSR, Homo sapiens, UniProt P06213) | enzyme activity |  | 100 nM, human enzyme, together with: 10 µM ATP | relative to: untreated | remaining activity | 96%
CN(C)[C@H]1C[C@@]23CC[C@@]4(O2)C(=CC[C@]2(C)[C@@H](c5ccc6ccncc6c5)CC[C@H]24)C=C3[C@@H](O)[C@@H]1O | Calcium/calmodulin-dependent protein kinase type 1D (CAMK1D, Homo sapiens, UniProt Q8IU85) | ATP probe labelling, inhibitor, KiNativ profiling |  | 0.1 µM |  | inhibition | -1%

For quick reference, copied from above:
SMILES | tested on | test | system | conditions | scale | endpoint | value
Cc1ccc2c(n1)c(-c1cccc(S(C)(=O)=O)c1)c(C)n2C/C(F)=C/CN | Metabotropic glutamate receptor 5 (GRM5, Homo sapiens, UniProt P41594) | ligand displacement, radioligand |  | 10 µM |  | inhibition | 16%
N[C@H](C(=O)N1CCCC1)C1CCN(c2nccc3c(-c4ncc(Cl)cc4Cl)cccc23)CC1 | Protein-arginine deiminase type-2 (PADI2, Homo sapiens, UniProt Q9Y2J8) | enzyme activity, GDH-coupled |  | 0.2458 µM, together with: 1.5 mM Ca2+ (high) |  | inhibition | -0.0786% and 8.72%
COc1cc2c(cc1OC)CNCC2 | BCHE | enzyme activity, inhibitor, Ellman |  | 20 µM |  | inhibition | 39.6%
